Experimental data of several laboratories.
Compare with care: the assays were run in different laboratories. ± marks the error that the study gave.
ACOT11: Acyl-coenzyme A thioesterase 11 (ACOT11, Homo sapiens, UniProt Q8WXI4)
UniProt Q8WXI4, sequence (whole entry, looked up): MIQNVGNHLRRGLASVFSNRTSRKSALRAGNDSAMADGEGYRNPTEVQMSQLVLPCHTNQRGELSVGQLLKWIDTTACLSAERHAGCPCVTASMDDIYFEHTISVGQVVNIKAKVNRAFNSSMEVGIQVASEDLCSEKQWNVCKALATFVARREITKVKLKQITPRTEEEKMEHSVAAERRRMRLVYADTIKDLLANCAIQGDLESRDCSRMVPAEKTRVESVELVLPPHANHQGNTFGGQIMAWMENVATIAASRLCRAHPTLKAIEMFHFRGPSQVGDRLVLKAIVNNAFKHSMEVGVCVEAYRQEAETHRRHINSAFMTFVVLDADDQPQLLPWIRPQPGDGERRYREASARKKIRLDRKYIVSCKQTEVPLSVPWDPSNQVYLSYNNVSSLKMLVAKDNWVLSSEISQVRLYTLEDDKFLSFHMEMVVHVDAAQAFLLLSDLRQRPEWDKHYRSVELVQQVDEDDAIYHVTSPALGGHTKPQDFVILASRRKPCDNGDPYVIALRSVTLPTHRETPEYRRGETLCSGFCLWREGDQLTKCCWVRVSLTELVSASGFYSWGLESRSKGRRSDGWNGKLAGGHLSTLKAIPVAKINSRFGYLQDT
TAGLN: Transgelin (TAGLN, Homo sapiens, UniProt Q01995)
UniProt Q01995, sequence (whole entry, looked up): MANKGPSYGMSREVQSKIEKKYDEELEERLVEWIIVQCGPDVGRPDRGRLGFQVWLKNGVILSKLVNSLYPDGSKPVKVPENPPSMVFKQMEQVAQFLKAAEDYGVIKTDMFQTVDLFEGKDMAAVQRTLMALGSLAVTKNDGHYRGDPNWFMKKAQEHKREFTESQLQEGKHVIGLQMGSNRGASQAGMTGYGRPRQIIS
UniProt P40337, sequence (whole entry, looked up): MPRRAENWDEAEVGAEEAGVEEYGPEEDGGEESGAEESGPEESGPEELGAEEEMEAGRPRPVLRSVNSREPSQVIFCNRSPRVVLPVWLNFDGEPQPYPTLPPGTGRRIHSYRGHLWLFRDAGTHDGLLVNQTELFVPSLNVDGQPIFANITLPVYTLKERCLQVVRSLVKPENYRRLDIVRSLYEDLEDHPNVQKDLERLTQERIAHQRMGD
UniProt P53350, sequence (whole entry, looked up): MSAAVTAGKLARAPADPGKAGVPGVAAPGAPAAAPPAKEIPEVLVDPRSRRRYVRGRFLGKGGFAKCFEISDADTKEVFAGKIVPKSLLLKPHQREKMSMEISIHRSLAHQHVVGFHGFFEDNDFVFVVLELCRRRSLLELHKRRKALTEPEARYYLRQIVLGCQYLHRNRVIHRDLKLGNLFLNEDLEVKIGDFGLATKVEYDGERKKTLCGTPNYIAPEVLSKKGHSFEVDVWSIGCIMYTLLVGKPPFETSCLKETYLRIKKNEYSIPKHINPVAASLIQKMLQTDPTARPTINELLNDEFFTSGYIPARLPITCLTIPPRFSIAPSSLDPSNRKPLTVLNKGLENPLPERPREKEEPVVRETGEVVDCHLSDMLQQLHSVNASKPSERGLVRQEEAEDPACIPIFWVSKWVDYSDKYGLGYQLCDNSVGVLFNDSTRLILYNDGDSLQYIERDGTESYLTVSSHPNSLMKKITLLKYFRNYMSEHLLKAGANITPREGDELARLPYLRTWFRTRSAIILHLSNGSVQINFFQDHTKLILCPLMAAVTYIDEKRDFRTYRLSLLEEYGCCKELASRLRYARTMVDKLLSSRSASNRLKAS
UniProt P31641, sequence (whole entry, looked up): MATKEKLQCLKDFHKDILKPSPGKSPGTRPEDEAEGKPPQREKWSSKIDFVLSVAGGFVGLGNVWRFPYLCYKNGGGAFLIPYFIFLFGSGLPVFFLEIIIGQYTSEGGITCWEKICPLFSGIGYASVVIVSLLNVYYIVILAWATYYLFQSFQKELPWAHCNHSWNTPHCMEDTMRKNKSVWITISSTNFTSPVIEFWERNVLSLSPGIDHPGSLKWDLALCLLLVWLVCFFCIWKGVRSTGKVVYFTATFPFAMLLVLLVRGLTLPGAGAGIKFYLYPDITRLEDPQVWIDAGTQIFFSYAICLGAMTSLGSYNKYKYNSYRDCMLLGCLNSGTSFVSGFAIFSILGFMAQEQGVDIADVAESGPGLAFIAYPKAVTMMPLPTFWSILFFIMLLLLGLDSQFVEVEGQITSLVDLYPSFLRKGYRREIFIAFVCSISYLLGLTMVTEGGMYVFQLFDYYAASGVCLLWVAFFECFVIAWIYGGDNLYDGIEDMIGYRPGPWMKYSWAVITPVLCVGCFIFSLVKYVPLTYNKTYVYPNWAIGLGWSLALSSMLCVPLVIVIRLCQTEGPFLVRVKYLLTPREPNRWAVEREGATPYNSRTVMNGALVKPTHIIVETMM
UniProt P08191, sequence (whole entry, looked up): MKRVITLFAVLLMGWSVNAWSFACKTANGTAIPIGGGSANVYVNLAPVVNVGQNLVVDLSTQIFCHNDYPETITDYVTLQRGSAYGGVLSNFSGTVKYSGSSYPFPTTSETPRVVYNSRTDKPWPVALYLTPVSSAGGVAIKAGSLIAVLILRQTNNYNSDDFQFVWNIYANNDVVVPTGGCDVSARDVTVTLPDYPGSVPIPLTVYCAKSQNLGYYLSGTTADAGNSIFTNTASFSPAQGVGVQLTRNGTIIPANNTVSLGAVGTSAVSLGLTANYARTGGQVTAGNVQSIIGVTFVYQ
UniProt P39748, sequence (whole entry, looked up): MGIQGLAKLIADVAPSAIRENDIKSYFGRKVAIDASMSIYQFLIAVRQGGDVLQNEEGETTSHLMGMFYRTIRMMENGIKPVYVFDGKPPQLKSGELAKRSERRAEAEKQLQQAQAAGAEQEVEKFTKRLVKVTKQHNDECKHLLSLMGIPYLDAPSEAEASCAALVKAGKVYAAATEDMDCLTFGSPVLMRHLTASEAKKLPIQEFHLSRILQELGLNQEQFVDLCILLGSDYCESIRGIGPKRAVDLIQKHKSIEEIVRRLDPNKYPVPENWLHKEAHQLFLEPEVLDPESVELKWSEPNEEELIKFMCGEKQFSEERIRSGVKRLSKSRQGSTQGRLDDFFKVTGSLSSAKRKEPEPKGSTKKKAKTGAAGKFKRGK
UniProt Q9H8M2, sequence (whole entry, looked up): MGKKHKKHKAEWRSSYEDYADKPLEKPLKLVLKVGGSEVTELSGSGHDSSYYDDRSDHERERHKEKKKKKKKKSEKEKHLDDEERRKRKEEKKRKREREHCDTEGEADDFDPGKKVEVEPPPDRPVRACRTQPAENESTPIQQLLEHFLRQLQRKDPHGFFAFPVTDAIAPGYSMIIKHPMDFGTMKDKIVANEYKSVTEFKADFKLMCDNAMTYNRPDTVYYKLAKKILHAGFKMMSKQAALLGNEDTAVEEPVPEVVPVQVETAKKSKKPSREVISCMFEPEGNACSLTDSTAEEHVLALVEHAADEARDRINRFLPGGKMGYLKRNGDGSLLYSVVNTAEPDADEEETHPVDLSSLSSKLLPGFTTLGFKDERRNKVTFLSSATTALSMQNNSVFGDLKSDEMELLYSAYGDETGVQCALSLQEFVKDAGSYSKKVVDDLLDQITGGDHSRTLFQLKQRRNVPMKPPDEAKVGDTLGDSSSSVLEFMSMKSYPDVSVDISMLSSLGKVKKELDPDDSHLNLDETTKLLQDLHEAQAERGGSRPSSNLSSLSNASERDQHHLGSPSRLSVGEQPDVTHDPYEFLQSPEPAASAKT
UniProt P05091, sequence (whole entry, looked up): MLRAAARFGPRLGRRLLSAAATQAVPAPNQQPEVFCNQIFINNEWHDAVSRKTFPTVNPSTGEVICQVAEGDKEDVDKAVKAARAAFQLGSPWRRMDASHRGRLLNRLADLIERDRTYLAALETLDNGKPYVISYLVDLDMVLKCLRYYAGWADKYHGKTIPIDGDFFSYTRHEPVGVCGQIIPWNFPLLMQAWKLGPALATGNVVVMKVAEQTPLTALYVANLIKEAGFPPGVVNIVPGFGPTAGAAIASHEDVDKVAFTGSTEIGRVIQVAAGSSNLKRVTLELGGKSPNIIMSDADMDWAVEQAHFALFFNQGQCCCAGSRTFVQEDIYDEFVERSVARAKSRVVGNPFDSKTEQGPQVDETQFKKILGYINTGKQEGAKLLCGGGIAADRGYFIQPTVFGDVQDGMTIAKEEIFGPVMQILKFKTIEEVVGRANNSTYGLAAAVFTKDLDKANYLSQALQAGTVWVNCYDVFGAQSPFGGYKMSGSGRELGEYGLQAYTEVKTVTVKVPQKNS
UniProt Q53GS9, sequence (whole entry, looked up): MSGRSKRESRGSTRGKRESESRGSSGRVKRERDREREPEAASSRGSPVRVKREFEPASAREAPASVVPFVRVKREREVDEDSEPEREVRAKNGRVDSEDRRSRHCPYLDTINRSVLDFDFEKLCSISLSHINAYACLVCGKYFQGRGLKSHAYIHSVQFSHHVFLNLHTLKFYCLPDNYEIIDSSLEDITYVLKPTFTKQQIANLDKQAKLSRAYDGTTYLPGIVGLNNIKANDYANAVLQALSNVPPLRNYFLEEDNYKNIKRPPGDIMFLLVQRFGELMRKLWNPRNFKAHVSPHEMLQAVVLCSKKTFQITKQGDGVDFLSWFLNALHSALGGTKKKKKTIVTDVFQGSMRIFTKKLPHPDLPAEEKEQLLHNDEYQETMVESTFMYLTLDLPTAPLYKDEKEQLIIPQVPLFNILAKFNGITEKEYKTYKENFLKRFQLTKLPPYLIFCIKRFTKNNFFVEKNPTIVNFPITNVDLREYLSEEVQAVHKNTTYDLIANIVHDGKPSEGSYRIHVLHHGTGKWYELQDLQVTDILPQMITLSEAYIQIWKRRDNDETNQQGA

C=C(NC(=O)c1csc(-c2nc3c(cc2O)-c2nc(cs2)C(=O)NC(C(C)O)C(=O)NC(=C(C)OC)c2nc(cs2)C(=O)NC2c4nc(cs4)C(=O)NC(COC(=O)c4c5c6c(cccc6n4O)COC(=O)C(OC4CC(C)(O)C(N(C)C)C(C)O4)C2OC5)c2nc-3cs2)n1)C(N)=O (stereo not drawn)  clearance (Sprague-Dawley rat, both sexes, plasma; intravenous infusion, 2 mg/kg single dose): 2.37 L/h/kg
CCOC(=O)N1CCN(C(c2cccs2)c2c(CC)[nH]c3ccccc23)CC1 (stereo not drawn)  Kd (ACOT11; binding, microscale thermophoresis): 3.39 µM
CNS(=O)(=O)Nc1nccc(Cc2c(C)c3ccc(Oc4ncccc4F)cc3oc2=O)c1F  IC50 (Huh-7; cell viability; 7 days): > 1 µM
O=C(/C=C/c1ccc(O)c(O)c1/C=C/c1ccc(O)c(O)c1)NC(Cc1ccc(O)c(O)c1)C(=O)O (stereo not drawn)  Kd (TAGLN; binding, surface plasmon resonance): 41.4 µM
COc1ccc(Cn2ccc3ccc(C(=O)NO)cc32)cc1  Kd (Aldehyde dehydrogenase, mitochondrial (ALDH2, Homo sapiens, UniProt P05091); inhibitor, competition pulldown; SW620 and MV4-11 lysate; 1 h): > 30.2 µM
CC(=O)NCCN(c1nc(N2CC3C(CCOc4cc(-c5scnc5C)ccc4CNC(=O)[C@@H]4C[C@@H](O)CN4C(=O)[C@@H](NC(=O)C4(F)CC4)C(C)(C)C)C3C2)nc(N2CC(n3ccnc3)C2)n1)C(C)C (stereo partly drawn)  Kd (VHL/BRD9 (Homo sapiens, UniProt P40337+Q9H8M2); ternary binding, SPR; together with: VCB at 2 µM): 1.3 µM
O=C(CCc1ccc(O)c(O)c1CCc1ccc(O)c(O)c1)OC(Cc1ccc(O)c(O)c1)C(=O)O (stereo not drawn)  Kd (TAGLN; binding, surface plasmon resonance): 31.2 µM
CCCCCCCO[C@H]1O[C@H](CO)[C@@H](O)[C@H](O)[C@@H]1O  Kd (Type 1 fimbrin D-mannose specific adhesin, lectin domain (fimH, Escherichia coli K-12, UniProt P08191); binding, isothermal titration calorimetry; 37 °C, global fit, two runs): 0.0362 µM
Cc1ncsc1-c1ccc(C(C)NC(=O)C2CC(O)CN2C(=O)C(NC(=O)CCCCCCCCCCN2CCCC(Nc3ncc(Cl)c(Nc4ccccc4S(=O)(=O)C(C)C)n3)C2)C(C)(C)C)cc1 (stereo not drawn)  log2 fold change (22Rv1; RNA-seq, item: SBNO2 mRNA; concentration not given; reference: DMSO): -1.24
O=c1c2sccc2n(CC2COc3ccccc3O2)c(=O)n1O (stereo not drawn)  Kd (Flap endonuclease 1 (Homo sapiens, UniProt P39748); binding, ITC; pH 7.5): 0.26 µM
CCOc1cccc(CN(CCO)Cc2ccc(O)c(C(=O)O)c2)c1  Kd (B- and T-lymphocyte attenuator (BTLA, Homo sapiens, UniProt Q7Z6A9); microscale thermophoresis): 0.65 µM
COc1ccc(/C=C/c2c(/C=C/C(=O)OC(Cc3ccc(OC)c(OC)c3)C(=O)O)ccc(OC)c2OC)cc1OC (stereo not drawn)  Kd (TAGLN; binding, surface plasmon resonance): 40.9 µM
CCCC[C@H](NC(=O)COCCOCCNC(=O)CN1CCN(CC(=O)O)CCN(CC(=O)O)CC1)C(=O)N[C@H]1CC(=O)NCCCC[C@@H](C(N)=O)NC(=O)[C@H](Cc2c[nH]c3ccccc23)NC(=O)[C@H](CCCNC(=N)N)NC(=O)[C@@H](Cc2ccccc2)NC(=O)[C@H](Cc2c[nH]cn2)NC1=O [technetium-99m labelled]  tissue uptake (C57 mouse, bone; intravenous, 0.037 MBq, 4 h): 0.06 ± 0.02 %ID/g
C=CC(=O)N1C[C@H](C)N(c2nc(OC[C@@]34CCCN3C[C@H](F)C4)nc3c(F)c(-c4ccc(F)c5sc(N)c(C#N)c45)c(C(F)(F)F)cc23)C[C@H]1C  Kd (GTPase KRas, GppNHp-bound (KRAS, Homo sapiens, UniProt P01116); GppNHp-bound wild type): 11.8 ± 1.3 µM
CCOC(=O)N1CCN(C(c2cccs2)c2c(C)[nH]c3ccccc23)CC1 (stereo not drawn)  Kd (ACOT11; binding, microscale thermophoresis): 5.97 µM
Cn1ncc2cc(-c3cncc(Cl)c3N3CCC4(CCNC4=O)CC3)ccc21  Kd (MED12 human; SILAC competition; LS174T-L5 lysate): 0.009 µM
C=CC(=O)Nc1cccc(Cn2ncc3cnc(Nc4cnn(CCOC)c4)nc32)c1  percent of control (CDC2L1 human; binding, KINOMEscan; 100 nM; lower = stronger binding): 100%
O=C(O)CCC(=O)c1cccc(NS(=O)(=O)c2c[nH]c3ncccc23)c1  Kd (Ubiquitin carboxyl-terminal hydrolase 39, ZnF-UBD domain (Homo sapiens, UniProt Q53GS9)): > 1000 µM
COC1CN([C@H]2CC[C@H]([C@@]3(C)Oc4c(Cl)cc(C(=O)NCc5c(SC)cc(C)[nH]c5=O)c(C)c4O3)CC2)C1  log2 fold change (RNA-seq, item: CADM3 mouse homolog; mouse, HT-1376 xenograft, whole blood; dose not given; reference: vehicle): 1.65
Cc1nn(-c2cccc(N)c2)c(=O)c2cnc(Nc3ccc(N4CCNCC4)cc3)nc12  IC50 (Serine/threonine-protein kinase PLK1 (PLK1, Homo sapiens, UniProt P53350); enzyme activity, inhibitor): > 10 µM
NCCC(=O)O  Kd (Sodium- and chloride-dependent taurine transporter (SLC6A6, Homo sapiens, UniProt P31641); binding, MST): 0.72 µM

For quick reference, copied from above:
COc1ccc(Cn2ccc3ccc(C(=O)NO)cc32)cc1  Kd (Aldehyde dehydrogenase, mitochondrial (ALDH2, Homo sapiens, UniProt P05091); inhibitor, competition pulldown; SW620 and MV4-11 lysate; 1 h): > 30.2 µM
CC(=O)NCCN(c1nc(N2CC3C(CCOc4cc(-c5scnc5C)ccc4CNC(=O)[C@@H]4C[C@@H](O)CN4C(=O)[C@@H](NC(=O)C4(F)CC4)C(C)(C)C)C3C2)nc(N2CC(n3ccnc3)C2)n1)C(C)C (stereo partly drawn)  Kd (VHL/BRD9 (Homo sapiens, UniProt P40337+Q9H8M2); ternary binding, SPR; together with: VCB at 2 µM): 1.3 µM
